Published values of several laboratories.
Lines come from different studies, so protocols differ. “And” joins repeats or separate records; there may be more than shown. Numbers after ± are the reported error.
UniProt Q9H3N8, sequence (whole entry, looked up): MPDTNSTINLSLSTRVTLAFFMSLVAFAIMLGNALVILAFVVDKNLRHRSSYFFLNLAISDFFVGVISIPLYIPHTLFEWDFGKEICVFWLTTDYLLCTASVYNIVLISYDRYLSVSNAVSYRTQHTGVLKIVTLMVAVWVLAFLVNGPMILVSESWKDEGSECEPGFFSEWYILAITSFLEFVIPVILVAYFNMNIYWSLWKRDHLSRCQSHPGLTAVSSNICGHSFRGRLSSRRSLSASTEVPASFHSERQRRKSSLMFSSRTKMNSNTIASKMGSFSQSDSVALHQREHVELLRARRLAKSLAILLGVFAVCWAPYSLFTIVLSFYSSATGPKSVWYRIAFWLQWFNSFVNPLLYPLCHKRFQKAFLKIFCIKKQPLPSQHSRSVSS
UniProt Q9UBE8, sequence (whole entry, looked up): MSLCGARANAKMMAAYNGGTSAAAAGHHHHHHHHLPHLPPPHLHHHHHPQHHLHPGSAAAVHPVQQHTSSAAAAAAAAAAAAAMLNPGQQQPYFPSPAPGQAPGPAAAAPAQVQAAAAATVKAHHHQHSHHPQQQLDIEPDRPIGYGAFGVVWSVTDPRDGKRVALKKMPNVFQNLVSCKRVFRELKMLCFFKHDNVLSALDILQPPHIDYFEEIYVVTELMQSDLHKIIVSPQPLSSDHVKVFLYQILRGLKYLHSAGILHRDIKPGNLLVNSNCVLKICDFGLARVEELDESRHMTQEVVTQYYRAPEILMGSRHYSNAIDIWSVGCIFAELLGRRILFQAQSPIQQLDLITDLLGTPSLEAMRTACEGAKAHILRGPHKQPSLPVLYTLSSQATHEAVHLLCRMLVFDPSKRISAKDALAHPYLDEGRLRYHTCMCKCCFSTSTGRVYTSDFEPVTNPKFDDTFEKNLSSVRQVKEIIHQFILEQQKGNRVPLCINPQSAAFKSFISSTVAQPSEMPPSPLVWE

| Structure (SMILES) | target or system | test | system | conditions | how to read | quantity | value |
| --- | --- | --- | --- | --- | --- | --- | --- |
| COc1nc(CC=C(C)CC=CC(C)=CC(C)C(OC2OC(CO)C(O)C(O)C2O)C(C)=CCO)c(C)c(O)c1OC (stereo not drawn) | – | – | C57BL/6 mouse, plasma | oral, 10 mg/kg | – | clearance | 203 ± 22.8 L/h/kg |
| CSCC[C@H](N)C(=O)N[C@@H](C)C(=O)N[C@@H](Cc1c[nH]c2ccccc12)C(=O)N[C@@H](Cc1c[nH]cn1)C(=O)N[C@@H](CC(=O)O)C(=O)N[C@@H](CC(=O)O)C(=O)N[C@@H](CCC(=O)O)C(=O)N[C@@H](CCC(=O)O)C(=O)N[C@@H](Cc1ccccc1)C(=O)N[C@@H](C)C(=O)N[C@@H](CCCNC(=N)N)C(=O)N[C@@H](CCCNC(=N)N)C(=O)N[C@@H](CCCNC(=N)N)C(=O)N[C@@H](CCCNC(=N)N)C(=O)NCCCCCC(=O)NCCCCC(NC(=O)CCCCCNC(=O)[C@H](CCCNC(=N)N)NC(=O)[C@H](CCCNC(=N)N)NC(=O)[C@H](CCCNC(=N)N)NC(=O)[C@H](CCCNC(=N)N)NC(=O)[C@H](C)NC(=O)[C@H](Cc1ccccc1)NC(=O)[C@H](CCC(=O)O)NC(=O)[C@H](CCC(=O)O)NC(=O)[C@H](CC(=O)O)NC(=O)[C@H](CC(=O)O)NC(=O)[C@H](Cc1c[nH]cn1)NC(=O)[C@H](Cc1c[nH]c2ccccc12)NC(=O)[C@H](C)NC(=O)[C@@H](N)CCSC)C(=O)NCCCCC(NC(=O)C(CCCCNC(=O)CCCCCNC(=O)[C@H](CCCNC(=N)N)NC(=O)[C@H](CCCNC(=N)N)NC(=O)[C@H](CCCNC(=N)N)NC(=O)[C@H](CCCNC(=N)N)NC(=O)[C@H](C)NC(=O)[C@H](Cc1ccccc1)NC(=O)[C@H](CCC(=O)O)NC(=O)[C@H](CCC(=O)O)NC(=O)[C@H](CC(=O)O)NC(=O)[C@H](CC(=O)O)NC(=O)[C@H](Cc1c[nH]cn1)NC(=O)[C@H](Cc1c[nH]c2ccccc12)NC(=O)[C@H](C)NC(=O)[C@@H](N)CCSC)NC(=O)CCCCCNC(=O)[C@H](CCCNC(=N)N)NC(=O)[C@H](CCCNC(=N)N)NC(=O)[C@H](CCCNC(=N)N)NC(=O)[C@H](CCCNC(=N)N)NC(=O)[C@H](C)NC(=O)[C@H](Cc1ccccc1)NC(=O)[C@H](CCC(=O)O)NC(=O)[C@H](CCC(=O)O)NC(=O)[C@H](CC(=O)O)NC(=O)[C@H](CC(=O)O)NC(=O)[C@H](Cc1c[nH]cn1)NC(=O)[C@H](Cc1c[nH]c2ccccc12)NC(=O)[C@H](C)NC(=O)[C@@H](N)CCSC)C(N)=O (stereo partly drawn) | – | – | C57BL/6 mouse female, liver | dose not given, 3 h | reference: total | mean tissue distribution | 6.65% |
| COC(=O)c1ccc2c(c1)CCC1C2=NN(c2ccc(C#N)c(Cl)c2)C1C1CCCC1 (stereo not drawn) | – | – | PBS | 90 min | – | kinetic solubility | < 1 µM |
| CS(C)(=O)=Nc1ccc(-c2ccc(-c3nc4cc(O[C@@H]5CO[C@H]6[C@@H]5OC[C@H]6O)[nH]c4cc3F)cc2)cc1 | Histamine H4 receptor (HRH4, Homo sapiens, UniProt Q9H3N8) | calcium signal, antagonist | – | 10 µM | – | inhibition | -16% |
| CC(=O)NCCCC[C@@H]1NC(=O)[C@H](Cc2c[nH]c3c(C)cccc23)NC(=O)[C@H]([C@@H](C)O)NC(=O)[C@H](CC(N)=O)NC(=O)[C@@H](NC(C)=O)C(C)(C)SSC(C)(C)[C@@H](C(=O)N[C@@H](Cc2ccc(OCCN)cc2)C(=O)N[C@@H](Cc2ccc3ccccc3c2)C(=O)NC2(C(=O)N[C@@H](CCC(=O)O)C(=O)N[C@@H](CC(N)=O)C(=O)N[C@@H](Cc3cccnc3)C(=O)N(C)CC(N)=O)CCOCC2)NC1=O | – | equilibrium dialysis | rat, plasma | 1 µM | – | plasma protein binding | 51.2 ± 1.8% |
| CC(C)(C)C(=O)OCOP(=O)(OCOC(=O)C(C)(C)C)C1CCCN(O)C1=O (stereo not drawn) | RXF 393 | – | – | – | – | log TGI | -5.76 log M |
| CC(C)[C@@H]1NC(=O)CNC(=O)[C@H](CC(N)=O)NC(=O)[C@H](CCCNC(=N)N)NC(=O)[C@H](Cc2ccc(O)cc2)NC(=O)[C@H](C(C)C)NC(=O)[C@@H](NC(=O)[C@@H](NC(=O)[C@H](CC(N)=O)NC(=O)[C@H](Cc2c[nH]c3ccccc23)NC(=O)[C@H](C)NC(=O)[C@H](Cc2ccccc2)NC(=O)CNC(=O)[C@H](CCCCN)NC(=O)[C@H](Cc2ccccc2)NC(=O)[C@H](Cc2ccccc2)NC(=O)[C@H](CCCCN)NC(=O)OCC2c3ccccc3-c3ccccc32)C(C)C)CSSC[C@@H](C(=O)N[C@@H](Cc2c[nH]cn2)C(=O)N[C@@H](CCCNC(=N)N)C(=O)N[C@@H](CCCNC(=N)N)C(=O)N[C@@H](C)C(=O)N[C@@H](CC(N)=O)C(N)=O)NC(=O)[C@H](C(C)C)NC(=O)[C@H](CCCNC(=N)N)NC1=O | – | HPLC | mouse kidney homogenate 50 mg/mL | 4.00 h, 37 °C | – | peptide remaining | 72.6% and 66.5% and 68.7% |
| CN1Cc2cc(Cl)ccc2-n2c(nnc2C2CCN(c3cccc([18F])n3)CC2)C1 | – | PET two-tissue compartment model | rhesus monkey, male, striatum | intravenous, dose not given, 80 min scan, baseline scan | – | total volume of distribution | 1.08 ± 0.3 mL/cm3 |
| CN(C)[C@H]1C[C@@]23CC[C@@]4(O2)C(=CC[C@]2(C)[C@@H](c5ccc6ccncc6c5)CC[C@H]24)C=C3[C@@H](O)[C@@H]1O | Serine/threonine-protein kinase NLK (NLK, Homo sapiens, UniProt Q9UBE8) | ATP probe labelling, inhibitor, KiNativ profiling | – | 1 µM | – | inhibition | 15.1% |
| CSCC[C@H](NC(=O)CNC(=O)[C@H](CCCCN)NC(=O)[C@H](CC(C)C)NC(=O)[C@@H]1CCCN1C(=O)[C@H](CO)NC(=O)[C@H](Cc1c[nH]cn1)NC(=O)[C@H](Cc1c[nH]c2ccccc12)NC(=O)[C@H](CCCNC(=N)N)NC(=O)[C@H](CC(C)C)NC(=O)[C@H](CCCNC(=N)N)NC(=O)[C@H](Cc1c[nH]c2ccccc12)NC(=O)[C@H](CS)NC(=O)CCCCCNC(=O)CN1CCN(CC(=O)O)CCN(CC(=O)O)CCN(CC(=O)O)CC1)C(=O)O [copper-64 labelled] | – | – | C57BL/6J mice, B16-F10 tumour | intravenous, 1.85 MBq, 0.5 h | reference: tumour over muscle | tumour-to-muscle ratio | 5.96 |
| CC[C@H](C)[C@H](NC(=O)[C@H](CCCCN)NC(=O)CNC(=O)[C@H](CC(C)C)NC(=O)[C@H](Cc1ccccc1)NC(=O)[C@H](CCCCN)NC(=O)[C@H](CO)NC(=O)[C@H](Cc1ccccc1)NC(=O)[C@H](Cc1c[nH]c2ccccc12)NC(=O)[C@H](CCC(N)=O)NC(=O)[C@@H](NC(=O)[C@H](Cc1ccccc1)NC(=O)CCCCCNC(=O)CN1CCN(CC(=O)O)CCN(CC(=O)O)CCN(CC(=O)O)CC1)C(C)C)C(=O)N[C@@H](CCC(=O)O)C(=O)N1CCC[C@H]1C(=O)N[C@@H](CC(=O)O)C(=O)N[C@H](C(=O)N[C@@H](CO)C(=O)N[C@@H](CCC(N)=O)C(=O)N[C@H](C(=O)N[C@@H](CCC(N)=O)C(=O)N[C@@H](CC(=O)O)C(=O)N1CCC[C@H]1C(=O)N[C@@H](CC(N)=O)C(=O)N[C@@H](CC(=O)O)C(=O)N[C@@H](CCC(N)=O)C(=O)N[C@@H](Cc1ccc(O)cc1)C(=O)N[C@@H](CCC(=O)O)C(=O)N1CCC[C@H]1C(=O)N[C@@H](Cc1ccccc1)C(=O)O)C(C)C)C(C)C [copper-64 labelled] | – | – | GZMB-/- mice, CT26 tumour-bearing, kidneys | 2 h, vehicle-treated | – | tissue uptake | 30.5 ± 7.5 %ID/g |
| CCCC[C@H]1C(=O)N(C)[C@@H](CCCC)C(=O)N[C@@H](CCCNC(=O)CN2CCN(CC(=O)O)CCN(CC(=O)O)CCN(CC(=O)O)CC2)C(=O)N[C@H](C(=O)NCC(N)=O)CSCC(=O)N[C@@H](Cc2ccc(O)cc2)C(=O)N(C)[C@@H](C)C(=O)N[C@@H](CC(N)=O)C(=O)N2CCC[C@H]2C(=O)N[C@@H](Cc2c[nH]cn2)C(=O)N[C@@H](CC(C)C)C(=O)N(C)CC(=O)N[C@@H](Cc2c[nH]c3ccccc23)C(=O)N[C@@H](CO)C(=O)N[C@@H](Cc2c[nH]c3ccccc23)C(=O)N1C [gallium-68 labelled] | – | – | NOD/SCID mice with CHO-hPD-L1 xenograft, intestine | 60 min post injection | – | tissue uptake | 5.64 ± 0.64 %ID/g |
| COc1ccccc1-c1n[nH]c2nc(NC3CCN(C(=O)Cc4ccc(F)cc4F)CC3)ncc12 | Leishmania donovani LINJ.36.6910 | bead binding competition | Leishmania donovani extract | 10 µM | reference: vehicle | relative abundance | 0.84 |
| C#Cc1c(F)ccc2cc(O)cc(-c3ncc4c(N5CC6CCC(C5)N6C(=O)OC(C)OC(=O)C(C)CC)nc(OC[C@@]56CCCN5C[C@H](F)C6)nc4c3F)c12 (stereo partly drawn) | – | chemical stability | simulated intestinal fluid | 1 µM, 30 min | – | compound remaining | 98.5% |
| Cc1nc2cccc(OCC(C)(C)C(=O)NC(C)C)c2c(N)c1C(=O)[O-].[Na+] | Salmonella typhimurium | – | TA1537 | 5.0 mg per plate, with S9, preincubation | – | revertant colonies per plate | 13 ± 5 |
| CC[C@H](C)[C@H](NC(=O)[C@H](CO)NC(=O)[C@H](Cc1ccc(O)cc1)NC(=O)[C@H](Cc1ccc(O)cc1)NC(=O)[C@H](CC(N)=O)NC(=O)CNC(=O)[C@H](CO)NC(=O)[C@H](Cc1ccc(O)cc1)NC(=O)[C@H](CO)NC(=O)[C@H](CO)NC(=O)[C@H](CC(N)=O)NC(=O)COCCOCCNC(=O)CN1CCN(CC(=O)O)CCN(CC(=O)O)CCN(CC(=O)O)CC1)C(=O)N[C@@H](CC(C)C)C(N)=O [copper-64 labelled] | – | dynamic PET | KPC mouse, pancreatic cancer model, blood | intravenous, 0.4 min, 49 days after tamoxifen | – | tumour uptake | 44.7 %ID/mL |
| CC(C)C[C@@H](NC(=O)[C@@H](CCCNC(=N)N)NC(=O)[C@@H](Cc1c[nH]cn1)NC(=O)[C@@H](Cc1c[nH]c2ccccc12)NC(=O)[C@@H](Cc1c[nH]cn1)NC(=O)[C@@H](Cc1ccccc1)NC(=O)[C@H](NC(=O)[C@@H](Cc1ccc(O)cc1)NC(=O)CNC(=O)CNC(=O)CCOCCOCCOCCNC(=O)CN1CCN(CC(=O)O)CCN(CC(=O)O)CC1)[C@H](C)O)C(=O)N[C@H](CC(N)=O)C(=O)N1CCC[C@@H]1C(=O)O [gallium-68 labelled] | – | – | human male, from C57BL/6 mouse, red marrow | – | – | absorbed dose | 0.00835 ± 5.77e-05 mSv/MBq |
| Cc1cc(C(=O)Nc2nc3cccc(C)c3n2[C@H]2CCCCN(C(=O)/C=C/CN(C)C)C2)ccn1 | Trypanosoma brucei brucei | – | 2T1 CLK1 overexpressing | 2.5 µM, compound pretreated | reference: maximum | survival | 145% and 124% and 157% and 153% |
| N#[11C]c1ccc(-c2csc(NN=C3CCCC3)n2)cc1 | – | – | C57BL/6 mouse, male | intravenous, 3 MBq, 5 min | – | uptake in stomach with contents | 2.83 ± 0.91 %ID/g |
| CCCCCCCCCCCC(=O)C(C)C(=O)N1CCC[C@H]1C(=O)NC(C)(C)C(=O)NC(C)(C)C(=O)NC(C)(C)C(=O)N[C@](C)(CC)C(=O)NCCC(=O)N[C@@H](C)C(=O)N[C@](C)(CC)C(=O)N[C@@H](C)C(=O)N[C@@H](CC(C)C)C(=O)N[C@](C)(CC)C(=O)NCCC(=O)N[C@@H](C)C(=O)N[C@](C)(CC)C(=O)NCCC(=O)N[C@@H](C)C(=O)NC(C)(C)C(=O)NC(C)(C)C(=O)NC(C)(C)C(=O)N[C@@H](C)C(=O)N[C@@H](CC(=O)O)C(=O)O (stereo partly drawn) | – | LC-MS | buffer with trypsin | 40 µM, 540 min, pH 7.5, 37 °C | reference: 0 h | remaining intact peptide | 62% and 64.4% and 53.6% |
| O=C1NC2(CC2)COc2ncc(F)cc2[C@H]2COCCN2c2ccn3ncc1c3n2 | – | – | Sprague-Dawley rat, male, serum | oral, 2.5 mg/kg/day, 4 weeks daily, end of recovery period | – | creatinine | 26.4 ± 2.3 µmol/L |

For quick reference, copied from above:
| Structure (SMILES) | target or system | test | system | conditions | how to read | quantity | value |
| --- | --- | --- | --- | --- | --- | --- | --- |
| COc1nc(CC=C(C)CC=CC(C)=CC(C)C(OC2OC(CO)C(O)C(O)C2O)C(C)=CCO)c(C)c(O)c1OC (stereo not drawn) | – | – | C57BL/6 mouse, plasma | oral, 10 mg/kg | – | clearance | 203 ± 22.8 L/h/kg |
| CC(C)[C@@H]1NC(=O)CNC(=O)[C@H](CC(N)=O)NC(=O)[C@H](CCCNC(=N)N)NC(=O)[C@H](Cc2ccc(O)cc2)NC(=O)[C@H](C(C)C)NC(=O)[C@@H](NC(=O)[C@@H](NC(=O)[C@H](CC(N)=O)NC(=O)[C@H](Cc2c[nH]c3ccccc23)NC(=O)[C@H](C)NC(=O)[C@H](Cc2ccccc2)NC(=O)CNC(=O)[C@H](CCCCN)NC(=O)[C@H](Cc2ccccc2)NC(=O)[C@H](Cc2ccccc2)NC(=O)[C@H](CCCCN)NC(=O)OCC2c3ccccc3-c3ccccc32)C(C)C)CSSC[C@@H](C(=O)N[C@@H](Cc2c[nH]cn2)C(=O)N[C@@H](CCCNC(=N)N)C(=O)N[C@@H](CCCNC(=N)N)C(=O)N[C@@H](C)C(=O)N[C@@H](CC(N)=O)C(N)=O)NC(=O)[C@H](C(C)C)NC(=O)[C@H](CCCNC(=N)N)NC1=O | – | HPLC | mouse kidney homogenate 50 mg/mL | 4.00 h, 37 °C | – | peptide remaining | 72.6% and 66.5% and 68.7% |
